Results pooled from the literature.
Numbered parts are unrelated; each lists some results of a single study.

Series 1 — method: protein-binding microarray; form: double-stranded DNA, one strand shown; sample: in vitro; tested at: 0.8 µM; setting: whole 60-bp probe, no competitor; direction: higher = stronger binding
Target: Centromere-binding protein 1, full length, N-terminal tag (CBF1, Saccharomyces cerevisiae, UniProt P17106, residues 1-351)
Sequence of UniProt P17106 (whole entry, looked up): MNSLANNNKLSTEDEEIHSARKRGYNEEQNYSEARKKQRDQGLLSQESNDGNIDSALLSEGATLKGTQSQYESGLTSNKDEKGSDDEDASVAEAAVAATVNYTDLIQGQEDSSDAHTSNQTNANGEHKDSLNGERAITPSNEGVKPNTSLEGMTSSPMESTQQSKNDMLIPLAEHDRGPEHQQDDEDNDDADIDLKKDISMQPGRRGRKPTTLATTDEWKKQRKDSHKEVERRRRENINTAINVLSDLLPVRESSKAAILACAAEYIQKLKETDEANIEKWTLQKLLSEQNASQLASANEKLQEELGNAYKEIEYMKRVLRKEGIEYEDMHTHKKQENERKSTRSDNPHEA
With `CTACACACCACACACTACGTCACAACACAACAATTCGTCTTGATTCGCTTGACGCTGCTG` the fluorescence intensity was 634 a.u.
The fluorescence intensity of `CTAACAACTAAAAATCACGAAAACAAAATGATATTCGTCTTGATTCGCTTGACGCTGCTG` is reported as 582 a.u.
`GAATCAATCTTGCATCACCATTACCAGCACGATTAGGTCTTGATTCGCTTGACGCTGCTG` gave a fluorescence intensity of 558 a.u.
`TGTACGAAGCTATCTCATCTGACTATAGTAGTTAGGGTCTTGATTCGCTTGACGCTGCTG` gave a fluorescence intensity of 528 a.u.

Series 2 — method: protein-binding microarray; form: double-stranded DNA, one strand shown; sample: in vitro; tested at: 940 nM top; setting: 60-bp whole probe; together with: salmon DNA 0.4 mg/ml; reference: random background probes; direction: higher = stronger binding
Target: Interferon regulatory factor 5, full length, phosphomimetic (IRF5, Homo sapiens, UniProt Q13568-2, residues 1-514, S451D/S453D/S456D/S462D)
`GCCTAGCACGAGGGTTCCCTTTTCCTGACGTGCTAGGTCTTGATTCGCTTGACGCTGCTG` — result for “fitted relative affinity”: 0.349 z-score.
For `GCCTAGCACTCAAGCAAAAATGATTGACTGTGCTAGGTCTTGATTCGCTTGACGCTGCTG`, “fitted relative affinity” read -0.371 z-score.
For `GCCTAGCACGACGGTTTCGTGACTGGGGACGTGCTAGTCTTGATTCGCTTGACGCTGCTG`, “fitted relative affinity” read 3.45 z-score.
For `GCCTAGCACTTTACTTTCTACGTCTGATTGTGCTAGGTCTTGATTCGCTTGACGCTGCTG`, “fitted relative affinity” read 2.7 z-score.

Series 3 — method: universal PBM; form: double-stranded DNA, one strand shown; sample: in vitro; tested at: not given; direction: higher = stronger binding
Target: Sal-like protein 4, full length isoform B (SALL4, Homo sapiens, UniProt Q9UJQ4-2, residues 1-616)
Setting: 8-mer, flanks averaged, mean of replicates
Target sequence (chain): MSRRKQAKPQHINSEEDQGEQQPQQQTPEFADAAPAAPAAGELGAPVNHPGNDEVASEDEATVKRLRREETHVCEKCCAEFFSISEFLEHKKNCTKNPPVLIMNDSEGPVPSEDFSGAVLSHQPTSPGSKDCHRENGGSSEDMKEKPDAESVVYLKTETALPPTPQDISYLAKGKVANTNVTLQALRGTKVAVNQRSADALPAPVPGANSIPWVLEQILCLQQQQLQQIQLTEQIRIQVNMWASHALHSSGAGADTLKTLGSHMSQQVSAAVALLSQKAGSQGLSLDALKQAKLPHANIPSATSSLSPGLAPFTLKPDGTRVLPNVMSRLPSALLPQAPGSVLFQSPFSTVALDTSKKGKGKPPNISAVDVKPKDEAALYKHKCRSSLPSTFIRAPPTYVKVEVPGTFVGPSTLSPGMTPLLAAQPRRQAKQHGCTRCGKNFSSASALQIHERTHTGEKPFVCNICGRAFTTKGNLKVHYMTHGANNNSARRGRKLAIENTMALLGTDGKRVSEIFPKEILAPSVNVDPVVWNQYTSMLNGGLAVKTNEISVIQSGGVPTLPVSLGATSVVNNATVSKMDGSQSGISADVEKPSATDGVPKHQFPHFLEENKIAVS
The E-score of `ATTGCTCC` is reported as -0.103.
For `CAGGCTCC`, the E-score was -0.321.
The E-score of `AGAGAAAA` is reported as 0.0761.
`ACATAAGC` has an E-score of 0.186.
`CTGTGAAA` has an E-score of 0.0845.

Further values, each from its own experiment
With `PhoQ, residues 284 288 289 292 302 303 QWGLFV` the fold induction was 1.48 (PhoP, residues 12 14 15 18 19 NHFRA (Escherichia coli, UniProt P23836); Sort-seq, item: YFP reporter; E. coli; PhoQ-PhoP variant library, together with: 10 µM Mg2+; reference: high Mg2+ state, higher = stronger signaling).

For quick reference, copied from above (series 3):
For `CAGGCTCC`, the E-score was -0.321.
The E-score of `AGAGAAAA` is reported as 0.0761.
